Published values collected from several papers.
Each line is one published result; not all experiments were run side by side. Values joined by “and” are separate records of one study, mostly repeats; a detail may differ. ± marks the error that the study gave.
T1: RNA A16C/A37U, hybrid riboswitch; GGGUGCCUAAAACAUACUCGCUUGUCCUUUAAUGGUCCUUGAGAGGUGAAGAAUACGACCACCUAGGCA
T2: preQ1-II riboswitch RNA (Carnobacterium antarcticum); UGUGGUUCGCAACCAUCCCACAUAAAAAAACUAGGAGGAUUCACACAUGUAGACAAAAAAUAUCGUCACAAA
T3: RNA, 2'-deoxy at 37-40 (Fusobacterium nucleatum); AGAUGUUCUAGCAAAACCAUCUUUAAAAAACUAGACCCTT
Chain of UniProt P51575 (whole entry, unmodified, looked up): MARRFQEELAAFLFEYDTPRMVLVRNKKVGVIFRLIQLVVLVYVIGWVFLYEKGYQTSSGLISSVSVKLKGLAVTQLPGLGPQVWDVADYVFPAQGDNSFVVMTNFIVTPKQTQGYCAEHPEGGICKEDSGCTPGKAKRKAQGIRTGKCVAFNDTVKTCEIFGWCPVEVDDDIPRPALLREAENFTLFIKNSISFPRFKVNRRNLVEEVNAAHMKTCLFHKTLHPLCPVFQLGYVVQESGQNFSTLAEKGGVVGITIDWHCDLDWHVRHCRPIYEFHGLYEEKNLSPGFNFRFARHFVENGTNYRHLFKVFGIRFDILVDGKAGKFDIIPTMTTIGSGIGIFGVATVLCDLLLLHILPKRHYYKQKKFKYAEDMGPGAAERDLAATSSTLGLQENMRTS
Chain of UniProt Q64663 (whole entry, unmodified, looked up): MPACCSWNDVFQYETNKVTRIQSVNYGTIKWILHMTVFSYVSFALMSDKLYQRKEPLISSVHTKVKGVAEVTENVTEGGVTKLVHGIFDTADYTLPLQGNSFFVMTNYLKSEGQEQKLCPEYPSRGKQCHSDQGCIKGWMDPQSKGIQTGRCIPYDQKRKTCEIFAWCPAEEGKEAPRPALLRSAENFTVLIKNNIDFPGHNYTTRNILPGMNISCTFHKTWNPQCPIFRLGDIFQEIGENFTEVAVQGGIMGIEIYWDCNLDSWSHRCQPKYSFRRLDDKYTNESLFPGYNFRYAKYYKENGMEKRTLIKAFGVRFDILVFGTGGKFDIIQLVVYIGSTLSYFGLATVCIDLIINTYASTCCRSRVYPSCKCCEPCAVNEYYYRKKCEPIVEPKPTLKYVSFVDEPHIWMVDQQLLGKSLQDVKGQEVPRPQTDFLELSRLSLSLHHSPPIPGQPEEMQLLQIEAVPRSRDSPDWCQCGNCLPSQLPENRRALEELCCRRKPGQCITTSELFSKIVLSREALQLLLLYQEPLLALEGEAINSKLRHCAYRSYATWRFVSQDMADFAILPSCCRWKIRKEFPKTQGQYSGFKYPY
Chain of UniProt P0A8V2 (whole entry, looked up): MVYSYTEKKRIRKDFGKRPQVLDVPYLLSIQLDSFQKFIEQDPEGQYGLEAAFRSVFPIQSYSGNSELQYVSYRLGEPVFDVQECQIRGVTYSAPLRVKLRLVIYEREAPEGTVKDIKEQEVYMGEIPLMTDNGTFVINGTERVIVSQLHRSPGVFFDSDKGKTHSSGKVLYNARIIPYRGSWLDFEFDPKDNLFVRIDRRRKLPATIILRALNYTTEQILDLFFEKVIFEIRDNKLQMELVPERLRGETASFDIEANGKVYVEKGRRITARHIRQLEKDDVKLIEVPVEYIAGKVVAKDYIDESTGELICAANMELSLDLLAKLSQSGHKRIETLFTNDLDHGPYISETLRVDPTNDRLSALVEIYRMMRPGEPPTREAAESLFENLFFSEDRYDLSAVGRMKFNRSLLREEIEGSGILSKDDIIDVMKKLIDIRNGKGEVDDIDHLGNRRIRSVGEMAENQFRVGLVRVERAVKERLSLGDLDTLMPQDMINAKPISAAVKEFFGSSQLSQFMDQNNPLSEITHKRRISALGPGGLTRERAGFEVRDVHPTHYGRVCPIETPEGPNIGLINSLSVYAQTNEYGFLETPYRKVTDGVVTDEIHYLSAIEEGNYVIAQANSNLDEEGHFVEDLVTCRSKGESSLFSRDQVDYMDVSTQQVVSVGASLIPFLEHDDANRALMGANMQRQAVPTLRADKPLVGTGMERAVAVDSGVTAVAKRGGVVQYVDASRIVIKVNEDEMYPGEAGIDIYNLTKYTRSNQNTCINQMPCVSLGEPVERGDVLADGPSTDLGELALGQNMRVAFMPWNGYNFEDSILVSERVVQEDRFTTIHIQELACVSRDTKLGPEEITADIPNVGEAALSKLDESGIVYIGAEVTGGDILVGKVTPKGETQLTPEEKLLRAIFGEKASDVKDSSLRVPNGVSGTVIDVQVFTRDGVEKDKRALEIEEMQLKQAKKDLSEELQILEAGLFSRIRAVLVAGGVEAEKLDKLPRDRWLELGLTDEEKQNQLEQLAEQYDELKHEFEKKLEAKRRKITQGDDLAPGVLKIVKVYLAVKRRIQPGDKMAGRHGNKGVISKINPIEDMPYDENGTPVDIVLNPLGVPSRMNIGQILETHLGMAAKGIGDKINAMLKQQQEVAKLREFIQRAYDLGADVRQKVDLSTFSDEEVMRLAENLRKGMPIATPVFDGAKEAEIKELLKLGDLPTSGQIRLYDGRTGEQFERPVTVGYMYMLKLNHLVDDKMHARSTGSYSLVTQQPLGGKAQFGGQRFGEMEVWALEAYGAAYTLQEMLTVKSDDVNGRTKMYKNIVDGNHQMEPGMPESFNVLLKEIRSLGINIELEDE
Chain of UniProt Q07011 (whole entry, looked up): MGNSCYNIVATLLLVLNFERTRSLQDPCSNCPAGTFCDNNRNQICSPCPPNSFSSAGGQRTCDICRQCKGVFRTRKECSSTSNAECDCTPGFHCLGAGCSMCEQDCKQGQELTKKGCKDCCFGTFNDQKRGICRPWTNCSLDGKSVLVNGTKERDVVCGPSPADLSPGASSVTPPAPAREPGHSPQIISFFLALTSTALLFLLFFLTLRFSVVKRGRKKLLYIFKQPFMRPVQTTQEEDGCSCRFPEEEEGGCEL
Chain of UniProt P0A8T7 (whole entry, looked up): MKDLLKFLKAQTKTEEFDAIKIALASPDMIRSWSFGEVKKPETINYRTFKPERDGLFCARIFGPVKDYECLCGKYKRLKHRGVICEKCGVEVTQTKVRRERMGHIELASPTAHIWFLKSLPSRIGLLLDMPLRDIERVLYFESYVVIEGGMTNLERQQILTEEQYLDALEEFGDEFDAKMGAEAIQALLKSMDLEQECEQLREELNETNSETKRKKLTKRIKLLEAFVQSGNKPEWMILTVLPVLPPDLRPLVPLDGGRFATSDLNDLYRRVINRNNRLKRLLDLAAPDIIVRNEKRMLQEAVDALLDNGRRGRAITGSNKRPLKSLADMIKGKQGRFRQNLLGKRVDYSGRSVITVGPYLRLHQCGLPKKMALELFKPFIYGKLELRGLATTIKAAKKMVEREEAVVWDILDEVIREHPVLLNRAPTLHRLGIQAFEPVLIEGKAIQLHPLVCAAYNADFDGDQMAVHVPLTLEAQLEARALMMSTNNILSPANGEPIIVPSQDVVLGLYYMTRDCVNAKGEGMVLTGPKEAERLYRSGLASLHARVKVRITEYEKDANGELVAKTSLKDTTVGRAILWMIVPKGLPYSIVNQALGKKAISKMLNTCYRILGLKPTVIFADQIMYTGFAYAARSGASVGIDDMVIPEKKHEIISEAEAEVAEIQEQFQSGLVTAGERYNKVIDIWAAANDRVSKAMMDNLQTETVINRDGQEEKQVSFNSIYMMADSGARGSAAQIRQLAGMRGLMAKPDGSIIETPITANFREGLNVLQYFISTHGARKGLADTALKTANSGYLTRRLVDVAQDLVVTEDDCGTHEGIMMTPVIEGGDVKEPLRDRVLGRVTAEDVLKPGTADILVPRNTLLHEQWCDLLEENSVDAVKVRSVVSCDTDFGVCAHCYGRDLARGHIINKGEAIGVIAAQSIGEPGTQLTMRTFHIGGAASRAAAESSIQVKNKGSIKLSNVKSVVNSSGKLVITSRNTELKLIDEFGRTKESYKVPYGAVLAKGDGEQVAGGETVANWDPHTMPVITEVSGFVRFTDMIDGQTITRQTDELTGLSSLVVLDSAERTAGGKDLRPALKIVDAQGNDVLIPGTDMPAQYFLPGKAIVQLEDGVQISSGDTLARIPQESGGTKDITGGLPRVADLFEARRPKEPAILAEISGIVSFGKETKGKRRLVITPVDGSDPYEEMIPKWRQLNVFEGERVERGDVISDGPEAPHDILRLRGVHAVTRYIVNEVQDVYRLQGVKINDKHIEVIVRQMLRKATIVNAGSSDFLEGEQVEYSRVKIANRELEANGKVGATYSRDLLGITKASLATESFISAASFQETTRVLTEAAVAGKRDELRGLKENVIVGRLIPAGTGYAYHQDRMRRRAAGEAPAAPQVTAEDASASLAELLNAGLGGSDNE
Chain of UniProt P22736 (whole entry, looked up): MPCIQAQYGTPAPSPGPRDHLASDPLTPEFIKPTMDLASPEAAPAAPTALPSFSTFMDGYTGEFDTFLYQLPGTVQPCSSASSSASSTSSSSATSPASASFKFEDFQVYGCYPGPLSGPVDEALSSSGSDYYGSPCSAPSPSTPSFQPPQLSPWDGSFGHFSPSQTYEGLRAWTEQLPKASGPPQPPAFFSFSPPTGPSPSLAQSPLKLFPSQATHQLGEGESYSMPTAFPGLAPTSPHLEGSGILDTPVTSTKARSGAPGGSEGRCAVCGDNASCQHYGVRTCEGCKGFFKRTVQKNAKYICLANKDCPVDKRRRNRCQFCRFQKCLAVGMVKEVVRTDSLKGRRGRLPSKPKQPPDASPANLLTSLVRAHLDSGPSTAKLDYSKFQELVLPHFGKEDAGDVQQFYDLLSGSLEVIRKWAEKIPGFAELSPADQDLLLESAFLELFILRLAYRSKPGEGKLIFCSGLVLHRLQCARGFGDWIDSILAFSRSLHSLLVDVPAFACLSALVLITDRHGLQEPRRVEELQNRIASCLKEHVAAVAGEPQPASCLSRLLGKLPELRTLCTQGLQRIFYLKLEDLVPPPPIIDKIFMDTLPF
Chain of UniProt Q9UBL9 (whole entry, looked up): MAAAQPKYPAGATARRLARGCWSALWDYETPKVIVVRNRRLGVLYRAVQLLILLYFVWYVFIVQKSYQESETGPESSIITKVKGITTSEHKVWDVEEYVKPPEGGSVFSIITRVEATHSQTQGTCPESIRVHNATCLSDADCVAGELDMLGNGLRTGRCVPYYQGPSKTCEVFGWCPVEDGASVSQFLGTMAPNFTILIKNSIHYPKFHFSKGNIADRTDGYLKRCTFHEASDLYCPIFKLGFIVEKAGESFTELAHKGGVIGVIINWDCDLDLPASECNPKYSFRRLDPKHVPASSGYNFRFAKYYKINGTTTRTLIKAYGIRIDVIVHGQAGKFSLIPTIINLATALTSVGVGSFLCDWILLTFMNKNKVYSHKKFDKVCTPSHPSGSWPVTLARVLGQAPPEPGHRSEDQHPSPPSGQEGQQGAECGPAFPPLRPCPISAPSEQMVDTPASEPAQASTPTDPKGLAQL

Compound	target	test	test system	conditions	scale	quantity	value
Oc1ccccc1-c1n[nH]cc1-c1ccnc2ccccc12	Serine/threonine-protein kinase CST20 (CST20, Candida albicans, UniProt P0CY24)	kinase binding, MIB/MS competition	Candida albicans lysate	10 µM	reference: DMSO, negative = stronger binding	log2 fold change	-0.35
CCN1CCN(c2cc(N3CCN(CC)CC3)nc(NCCNc3ccnc4cc(Cl)ccc34)n2)CC1	Nuclear receptor subfamily 4 group A member 1 (NR4A1, Homo sapiens, UniProt P22736)	reporter gene, Gal4 hybrid reporter		10 µM	reference: vehicle	activation	1.18 ± 0.15 fold
Nc1ncnc2c1ncn2[C@@H]1O[C@H](COP(=O)(O)CP(=O)(O)OP(=O)(O)O)[C@@H](O)[C@H]1O	P2X purinoceptor 1 (P2RX1, Homo sapiens, UniProt P51575, K140A)	saturation binding	HEK293	25 nM		specific binding	1600 CCPM and 1170 CCPM and 4270 CCPM
NCCCS(=O)(=O)O	SLC6A6 (Homo sapiens, UniProt P31641, G62A)	binding, microscale thermophoresis		61 nM, room temperature, together with: 50 nM labelled protein	higher = more binding	normalised MST signal	0.0361
CCCC[C@@H]1NC(=O)[C@H](Cc2ccc(O)cc2)NC(=O)[C@@H]2CCCN2C(=O)[C@H](CC(=O)O)NC(=O)[C@H](C)NC(=O)[C@H](Cc2ccccc2)NC(=O)[C@@H]2CSCCC(=O)N3CN(CN(C3)C(=O)CCSC[C@@H](C(=O)N[C@@H](CNC(=O)CCOCCOCCOCCOCCOCCOCCOCCOCCOCCOCCOCCOCCn3cc(CCC(=O)NCCC(=O)N(C)CC(=O)N(C)CC(=O)N(C)CC(=O)N(C)CC(=O)N(C)CC(=O)N(C)CC(=O)N(C)CC(=O)N(C)CC(=O)N(C)CC(=O)N(C)CC(=O)N[C@H]4CSCCC(=O)N5CN6CN(C5)C(=O)CCSC[C@H](NC(=O)[C@@H](CC(=O)O)NC(=O)[C@H](Cc5cccc7ccccc57)NC(=O)[C@@H]5CCCN5C4=O)C(=O)N[C@@H](CCSC)C(=O)N[C@@H](CCCCNC(=N)N)C(=O)N[C@@H](CC(=O)O)C(=O)N[C@@H](Cc4c[nH]c5ccccc45)C(=O)N[C@@H](CO)C(=O)N[C@@H]([C@@H](C)O)C(=O)N4CCC[C@H]4C(=O)N4C[C@H](O)C[C@H]4C(=O)N[C@@H](Cc4c[nH]c5ccccc45)C(=O)N[C@H](C(N)=O)CSCCC6=O)nn3)C(N)=O)NC1=O)C(=O)CCSC[C@H](NC(C)=O)C(=O)N[C@@H](CC(C)(C)C)C(=O)N1CCC[C@H]1C(=O)N[C@@H](CCC(=O)O)C(=O)N[C@H](C)C(=O)N1CCC[C@H]1C(=O)N[C@@H](Cc1ccc(O)cc1)C(=O)N2	Tumor necrosis factor receptor superfamily member 9/Nectin-4 (Homo sapiens, UniProt Q07011+Q96NY8)	reporter gene, agonist	HT-1376 coculture with reporter cells		reference: background	Emax	36 fold
Nc1ccn([C@@H]2O[C@H](COP(=O)(O)OP(=O)(O)OP(=O)(O)O)[C@@H](O)[C@H]2O)c(=O)n1	DNA-directed RNA polymerase subunit beta' / DNA-directed RNA polymerase subunit beta (rpoC/rpoB, Escherichia coli, UniProt P0A8T7+P0A8V2)	RNA extension, denaturing gel	Escherichia coli, elongation complex, 6-MI template	5 µM, 10 min, 25 °C		incorporation efficiency	81%
NC[C@@H]1O[C@H](O[C@H]2[C@@H](O)[C@H](O[C@@H]3[C@@H](O)[C@H](N)C[C@H](N)[C@H]3O[C@H]3O[C@H](CN)[C@@H](O)[C@H](O)[C@H]3N)O[C@@H]2CO)[C@H](N)[C@@H](O)[C@@H]1O	T1, RNA A16C/A37U, hybrid riboswitch	in-line probing		72 h, Mg2+ 10 mM, K+ 100 mM		binding	binds
NCc1c[nH]c2nc(N)[nH]c(=O)c12	T2, preQ1-II riboswitch RNA (Carnobacterium antarcticum)	ribosome-assembly cleavage, RelE cleavage assay		apparent, together with: preQ1		EC50	15 µM
Nc1nc2[nH]cnc2c(=O)[nH]1	T3, RNA, 2'-deoxy at 37-40 (Fusobacterium nucleatum)	MST		apparent		Kd	12 µM
CN(C)C(=O)C(CCN1CCC(O)(c2ccc(Cl)cc2)CC1)(c1ccccc1)c1ccccc1	Calcium-activated potassium channel subunit alpha-1, with LRRC26 γ1 subunit (KCNMA1, Homo sapiens, UniProt Q12791)	ion current, inside-out patch, fit of G-V curve	BKα/γ1 channel	0.1 µM, together with: nominally 0 Ca2+		V1/2	20.3 mV
Nc1ncnc2c1ncn2[C@@H]1O[C@H](COP(=O)(O)OP(=O)(O)OP(=O)(O)O)[C@@H](O)[C@H]1O	P2X purinoceptor 7 (P2rx7, Rattus norvegicus, UniProt Q64663, R125A)	ion current, agonist, two-electrode voltage clamp	Xenopus laevis oocytes	55.56 µM	reference: highest concentration response	normalized current	0.59 and 0.651 and 0.667
COc1ccc(-c2n[nH]c(=S)o2)cc1	P2X purinoceptor 2 (P2RX2, Homo sapiens, UniProt Q9UBL9)	calcium mobilization	MCF7 stably transfected	100 µM, together with: ATP 100 µM		fluorescence increase	80.9 ± 1.89%
